Measured values gathered from unrelated publications.
Lines come from different studies, so protocols differ. “And” joins repeats or separate records; there may be more than shown.
Target: Serine/threonine-protein kinase haspin (HASPIN, Homo sapiens, UniProt Q8TF76)

SMILES	assay	setting	how to read	quantity	result
Cc1cccc(O[C@H]2CCC[C@@H](C(C)CNCc3ccncc3)C2)c1 (relative stereo)	enzyme activity, inhibitor	10 µM	–	inhibition	1%
Cc1c[nH]c2nccc(-c3ccc(C(=O)N[C@@H]4c5c(F)cc(C(F)F)cc5C[C@@H]4O)cn3)c12	binding, competition with immobilised ligand	3 µM	–	remaining binding	11%
C=CC(=O)Nc1cccc(-c2cnc3[nH]cc(C(=O)NC(C)(C)C)c3n2)c1	kinase activity	0.1 µM	–	inhibition	5% and 7%
C=CC(=O)N1CCc2ccc(-n3c(=O)ccc4cnc5ccc(-c6cnn(C)c6)cc5c43)cc21	KINOMEscan	1 µM	reference: DMSO control	remaining binding	100%
COc1ccc(NC(=O)Nc2ccc3c(c2)C(=O)N(C(C)CO)CC(C)C(CN(C)Cc2ccc4c(c2)OCO4)O3)cc1 (stereo not drawn)	kinase activity, KinaseProfiler	0.03 µM, species human	reference: control	remaining activity	94%
O=C=[N][Ru-4]123([n]4c5ccc(O)cc5c5c6c(c7cc(F)c[n+]1c7c54)C(=O)NC6=O)[S+]1CC[S+]2CC[S+]3CC1 (stereo not drawn)	enzyme activity	100 nM, human enzyme, with: 10 µM ATP	reference: untreated	remaining activity	79%
NC(=O)C[C@H]1CCc2sc3ncnc(O[C@H]4CC[C@H](N5CCOCC5)CC4)c3c21	enzyme activity, inhibitor	10 µM	–	inhibition	23%
Nc1ncc(-c2cc(-c3cnn(CC(F)(F)F)c3)ncc2F)nc1C(=O)NC1CNCC(F)C1 (stereo not drawn)	enzyme activity	1 µM	reference: DMSO control	remaining activity	95.6%
CNC(=O)C1CCN(c2cc(C)c(F)cc2NC(=O)c2ccc(-c3cc(O)ccc3C)c(C)c2)CC1	binding, competition with immobilised ligand	1 µM	–	remaining binding	72%
CN1CCN(Cc2ccc(-c3ccc(CO[C@H]4CCC[C@@H]4NC(=O)c4cc(-c5cnn(C)c5)cnc4N)cc3)cc2)CC1	enzyme activity, inhibitor	0.1 µM	–	inhibition	6%
Cc1cc(NC(=O)[C@H](O)c2cc(F)cc(F)c2)ccc1-c1cnc(N)c(C(=O)NC(C)C)c1	binding, competition with immobilised ligand	10 µM	–	remaining binding	30%
CN1CC[C@@H](COc2cnc(C#N)cc2-c2ccn3nc(NC(=O)C4CC4)cc3c2)C1	enzyme activity, inhibitor	1 µM	–	inhibition	17%
COc1c(OCCCN2CCOCC2)ccc2c1N=C(NC(=O)c1cnc(N)nc1)N1CCN=C21	kinase activity, inhibitor	1 µM	reference: untreated control	remaining activity	119%
C=CC(=O)N1Cc2nc(-c3cc(-c4cc(Cl)cnc4Cl)c(F)cc3F)n(-c3ccncn3)c2C1	cell-free assay, inhibitor	1 µM	–	inhibition	5.6%
COc1cc(Nc2nc(C)cc(-c3cnn4nc(OC)ccc34)n2)cc(C(F)(F)F)c1	KINOMEscan binding	1000 nM	reference: control	remaining binding	100%

Some of these lines once more:
SMILES	assay	setting	how to read	quantity	result
COc1ccc(NC(=O)Nc2ccc3c(c2)C(=O)N(C(C)CO)CC(C)C(CN(C)Cc2ccc4c(c2)OCO4)O3)cc1 (stereo not drawn)	kinase activity, KinaseProfiler	0.03 µM, species human	reference: control	remaining activity	94%
O=C=[N][Ru-4]123([n]4c5ccc(O)cc5c5c6c(c7cc(F)c[n+]1c7c54)C(=O)NC6=O)[S+]1CC[S+]2CC[S+]3CC1 (stereo not drawn)	enzyme activity	100 nM, human enzyme, with: 10 µM ATP	reference: untreated	remaining activity	79%
